Results collected from several papers.
Compare with care: the assays were run in different laboratories. Numbers after ± are the reported error.

CN1Cc2c(Cl)cc(Cl)cc2C(c2ccc(S(=O)(=O)NCCOCCOCCNC(=O)C(O)C(O)C(=O)NCCOCCOCCNS(=O)(=O)c3ccc(C4CN(C)Cc5c(Cl)cc(Cl)cc54)cc3)cc2)C1 (stereo not drawn) — stool form score (Sprague Dawley rats; oral, 3 mg/kg, 16 h; higher = more watery): 2.5
COc1ccc(C2CC(c3ccc(C)cc3)=Nc3ccccc3S2)cc1 (stereo not drawn) — body weight (Wistar rat, STZ-induced diabetes; oral, 20 mg/kg once daily, day 21): 184 ± 4.13 g
CC(C)c1cnc(-c2cc(Cl)ccc2F)cc1Nc1ccncc1C(=O)NC(CO)CO — inhibition (SMAD2 phosphorylation; mouse, 4T1 tumour, tumour; 30 mg/kg twice daily then once, 24 h period, steady state): 42%
Cc1sc(-c2ccc(C(F)(F)F)cc2)nc1-c1nn[nH]c1C#N — HbA1c change reduction (ZDF rat; dose not given, 6 weeks, added: sitagliptin 10 mg/kg/day; baseline: vehicle): 50.5%
O=C(O)[C@H]1O[C@@H](Oc2c(-c3ccc(O)c(O)c3)oc3cc(O)cc(O)c3c2=O)[C@H](O)[C@@H](O)[C@@H]1O — ABTS radical scavenging (100 µg/mL): 78 ± 2.8%
CC(C)[C@H](NC(=O)CN)C(=O)N[C@@H](CCCCN)C(=O)NCC(=O)N[C@@H](CC(=O)O)C(=O)N[C@@H](CCCCN)C(=O)NCC(=O)N[C@@H](CC(N)=O)C(=O)N1CCC[C@H]1C(=O)NCC(=O)N[C@@H](Cc1c[nH]c2ccccc12)C(=O)N1CCC[C@H]1C(=O)NCC(=O)N[C@@H](C)C(=O)N1CCC[C@H]1C(=O)O — spreading cells (bovine aortic endothelial cells, bovine; 100 µg/mL coating, peptide-coated plates): 0%
COC(=O)[C@H](CSSC(C)(C)[C@H](NC(=O)[C@H](CCC(=O)NC[C@H](O)[C@@H](O)[C@H](O)[C@H](O)CO)NC(=O)[C@H](CCC(=O)O)NC(=O)[C@H](CCC(=O)NC[C@H](O)[C@@H](O)[C@H](O)[C@H](O)CO)NC(=O)[C@H](CCC(=O)O)NC(=O)[C@H](CCC(=O)NC[C@H](O)[C@@H](O)[C@H](O)[C@H](O)CO)NC(=O)CC[C@H](NC(=O)c1ccc(NCc2cnc3nc(N)[nH]c(=O)c3n2)cc1)C(=O)O)C(=O)O)NC(=O)CC[C@H](NC(=O)c1ccc(NCc2cnc3nc(N)nc(N)c3n2)cc1)C(=O)O — histological score decrease (item: cartilage loss; Lewis rat, adjuvant-induced arthritis; 500 nmol/kg twice weekly × 2; direction not given): 65%
O=C(NC1CCCCC1)C(c1ccncc1)N(C(=O)CCl)c1ccc(F)cc1 (racemic) — off-target molecular weight (competitive ABPP; MDA-MB-435 soluble proteome; 5 µM, added: CA-Rh probe): 38 kDa
C[N+](C)(CF)CC(=O)O — platelet aggregation (human platelet-rich plasma; 20 µM, added: ADP 2 µM): no effect
CC/C=C\C/C=C\C/C=C\C/C=C\C/C=C\CCCCOC(CC)C(=O)O (stereo not drawn) — hepatic collagen change (APOE*3Leiden.CETP mice, high-fat/cholesterol diet; dose not given, 20 weeks; baseline: control): -32%
CN(C)C(=O)c1ccnc(N2Cc3cn(Cc4ccc(F)cc4F)nc3C2)n1 — effect size d (paired-pulse ratio; hippocampal Schaffer collaterals, mouse; concentration not given, interval 100 ms, unit not given; baseline: vehicle): 1.79
C[C@@H](NC(=O)Cc1ccc(Cl)c(SC2C(=O)CC(c3c(Cl)cccc3Cl)CC2=O)c1)c1cccc2ccccc12 (stereo partly drawn) — IFN-γ+ CD4+ T cells (flow cytometry; C57BL/6 mice, B16-F10 melanoma allograft, tumour; intratumoral, 50 mg/kg/day, 7 days): increased
C=C(c1cc(F)c(C(=O)O)c(F)c1)c1cc2c(cc1C)C(C)(C)CCC2(C)C — log2 fold change (RNA sequencing, item: Abca1 mRNA; rat, brain; dose not given, 24 h, single dose; baseline: vehicle): 0.17
CCOC(=O)c1cc2c(N)c(C(=O)OC)sc2nc1C — urinary osmolality (Sprague-Dawley rats; subcutaneous, 25, 50, 100 mg/kg; baseline: vehicle): decreased
CCCn1cnc(C[C@H](NC(=O)c2nccnc2N)C(=O)N2CCC[C@H]2C(N)=O)c1 — sleeping time reduction (Swiss albino mice; iv, 10 µmol/kg, added: pentobarbital 50 mg/kg ip; baseline: control): 9.2%
CSCC[C@@H]1NC(=O)[C@H](CCCCN)NC(=O)[C@H]([C@@H](C)O)NC(=O)[C@H](CCCCN)NC(=O)[C@H](CC(C)C)NC(=O)[C@H](CCCCN)NC(=O)[C@H](CCCNC(=N)N)NC(=O)[C@@H]2CSSC[C@@H]3NC(=O)[C@@H]4CCCN4C(=O)[C@H](C(C)C)NC(=O)[C@H](CCC(N)=O)NC(=O)[C@H](CCC(N)=O)NC(=O)CNC(=O)[C@H](CC(C)C)NC(=O)[C@@H]4CSSC[C@H](NC(=O)[C@H]([C@@H](C)O)NC(=O)[C@H](C)NC(=O)[C@H](CSSC[C@@H](C(=O)N[C@@H](CO)C(=O)N[C@@H](CCCNC(=N)N)C(=O)N[C@H](C(N)=O)[C@@H](C)O)NC(=O)[C@@H]5CCCN5C(=O)[C@H](CC(N)=O)NC1=O)NC(=O)[C@@H]1CCCN1C(=O)[C@H](CC(=O)O)NC(=O)[C@H](CSSC[C@H](NC(=O)[C@H](CCCNC(=N)N)NC(=O)[C@H](CCCNC(=N)N)NC(=O)[C@H](CCCCN)NC(=O)[C@@H](N)CCCCN)C(=O)N[C@@H](C(C)C)C(=O)N[C@@H](CCCNC(=N)N)C(=O)N[C@@H](CC(C)C)C(=O)N[C@@H](Cc1c[nH]cn1)C(=O)N[C@@H](CCC(=O)O)C(=O)N[C@@H](CO)C(=O)N4)NC3=O)C(=O)N[C@@H](Cc1ccc(O)cc1)C(=O)N[C@H]1CSSC[C@H](NC(=O)[C@H](Cc3ccccc3)NC(=O)[C@H](C)NC(=O)[C@H](CC(N)=O)NC(=O)[C@H](Cc3ccccc3)NC(=O)[C@H](Cc3ccccc3)NC(=O)[C@H](CCCNC(=N)N)NC1=O)C(=O)N[C@@H](Cc1ccc(O)cc1)C(=O)N2 — body weight change (Long-Evans rat, male; intracerebroventricular, 1.0 nmol, 5 days): 41.1 ± 6.8 g
CC[C@H](C)[C@@H]1NC(=O)[C@H](Cc2ccc(O)cc2)NC(=O)[C@@H](N)CSSC[C@@H](C(=O)N2CCC[C@H]2C(=O)N[C@@H](CCCCNC(=O)COCCOCCNC(=O)COCCOCCNC(=O)CC[C@H](NC(=O)CC[C@H](NC(=O)CCCCCCCCCCCCCCCCC(=O)O)C(=O)O)C(=O)O)C(=O)NCC(N)=O)NC(=O)[C@H](CC(N)=O)NC(=O)[C@H](CCC(N)=O)NC1=O — FGF21 mRNA level (RT-PCR; C57BL/6 mice, diet-induced obese, liver; subcutaneous, dose not given, 14 days): increased
Cc1nc(C)c(C=[N+]([O-])C(C)(C)C)nc1C — protein level increase (Western blot, item: MEF2D; mouse, MPTP model, substantia nigra nuclei; 30 mg/kg): 93%
COc1ccc(C2CC(c3ccc(C)cc3)=Nc3ccccc3S2)cc1OC (stereo not drawn) — body weight (Wistar rat, STZ-induced diabetes; oral, 10 mg/kg once daily, day 21): 179 ± 4.16 g
Cc1cc(O)c(C=O)c2c1C(=O)Oc1c(CO)c(O)c3c(c1O2)C(O)OC3=O (stereo not drawn) — body weight (rat male, streptozotocin diabetic; 10 mg/kg, 9 weeks): 179 ± 5.91 g
Cc1c(C(=O)Nc2ccn(C)n2)ncn1Cc1cccc(C(F)(F)F)c1 — wire hanging performance (human WT αS transgenic mouse; dose not given; baseline: placebo): no effect
CCCOC(=O)Cc1c(C)n(C(=O)c2ccc(Cl)cc2)c2ccc(OC)cc12 — latency of nociceptive response (hot plate test; BALB/c mice; 100 mg/kg, 90 min): 15.7 ± 1.54 s
O=S(=O)(c1ccccc1)N(CCc1nnc(S)o1)c1ccc(Cl)cc1 — protection (analgesic activity, tail flick test; rat; 200 mg/kg): 121%
Cc1cc2c(cc1C1(c3ncc(C(=O)O)cn3)CC1)C(C)(C)CCC2(C)C — log2 fold change (RNA sequencing, item: Cyp26b1 mRNA; rat, brain; dose not given, 24 h, single dose; baseline: vehicle): -0.07
NS(=O)(=O)NCCc1ccccc1F — ED50 (6 Hz seizures; mouse; intraperitoneal): 50 mg/kg
CC(=O)C12NC(C)(C)CC1(C)C(=O)C1=C2c2c(c3c4n2C(C)(C)CC2=C4C4(CC(C)(C)NC(C)(C4)C2=O)CC3(C)C)C(=O)C(C)(C)N1 (single isomer, unassigned; (-)) — inhibition (acetic acid-induced writhing; mouse; intraperitoneal, 5 mg/kg, 0.5 h, writhes counted over 30 min): 79.5 ± 1.6%
CC[C@H](C)[C@@H]1NC(=O)[C@H](Cc2ccccc2)NC(=O)[C@H](CCC(=O)O)NC(=O)[C@H](CCCNC(=N)N)NC(=O)CNC(=O)[C@@H](NC(=O)[C@H](CC(C)C)NC(=O)[C@H](CCCNC(=N)N)NC(=O)[C@@H](NC(=O)CNC(=O)[C@H](Cc2ccc(O)cc2)NC(=O)[C@@H]2CCCN2C(=O)[C@H](C)NC(=O)[C@H](C)NC(=O)[C@@H](N)CCCNC(=N)N)C(C)C)CSSC[C@@H]2NC(=O)[C@@H](NC(=O)[C@H](CO)NC(=O)[C@H](CO)NC(=O)[C@H](CO)NC(=O)[C@H](CC(C)C)NC(=O)CNC(=O)[C@H](C)NC(=O)[C@H](CC(C)C)NC(=O)[C@@H](NC(=O)[C@@H](N)CC(=O)O)C(C)C)CSSC[C@H](NC(=O)CNC(=O)[C@H](Cc3c[nH]c4ccccc34)NC(=O)[C@H](CCCCN)NC2=O)C(=O)N[C@@H](CO)C(=O)N[C@@H](CCCCN)C(=O)N[C@@H](CO)C(=O)N[C@@H](CCC(=O)O)C(=O)N[C@@H]([C@@H](C)CC)C(=O)N[C@@H](CO)C(=O)N[C@@H](CO)C(=O)N[C@@H](CC(C)C)C(=O)N[C@H](C(=O)O)CSSC[C@@H](C(=O)NCC(=O)NCC(=O)N[C@@H](CO)C(=O)N[C@@H](CCCNC(=N)N)C(=O)N[C@@H](Cc2c[nH]c3ccccc23)C(=O)O)NC(=O)[C@H]([C@@H](C)O)NC(=O)[C@H](Cc2ccccc2)NC(=O)[C@H]([C@@H](C)CC)NC(=O)[C@H](C(C)C)NC(=O)[C@H](C)NC(=O)[C@H](CCCNC(=N)N)NC1=O — centre time and latency (open field test; female Sprague-Dawley rats; intranasal, 275 µg/kg, 30 min predose; baseline: vehicle): increased

Some of these lines once more:
CCOC(=O)c1cc2c(N)c(C(=O)OC)sc2nc1C — urinary osmolality (Sprague-Dawley rats; subcutaneous, 25, 50, 100 mg/kg; baseline: vehicle): decreased
CCCn1cnc(C[C@H](NC(=O)c2nccnc2N)C(=O)N2CCC[C@H]2C(N)=O)c1 — sleeping time reduction (Swiss albino mice; iv, 10 µmol/kg, added: pentobarbital 50 mg/kg ip; baseline: control): 9.2%
CSCC[C@@H]1NC(=O)[C@H](CCCCN)NC(=O)[C@H]([C@@H](C)O)NC(=O)[C@H](CCCCN)NC(=O)[C@H](CC(C)C)NC(=O)[C@H](CCCCN)NC(=O)[C@H](CCCNC(=N)N)NC(=O)[C@@H]2CSSC[C@@H]3NC(=O)[C@@H]4CCCN4C(=O)[C@H](C(C)C)NC(=O)[C@H](CCC(N)=O)NC(=O)[C@H](CCC(N)=O)NC(=O)CNC(=O)[C@H](CC(C)C)NC(=O)[C@@H]4CSSC[C@H](NC(=O)[C@H]([C@@H](C)O)NC(=O)[C@H](C)NC(=O)[C@H](CSSC[C@@H](C(=O)N[C@@H](CO)C(=O)N[C@@H](CCCNC(=N)N)C(=O)N[C@H](C(N)=O)[C@@H](C)O)NC(=O)[C@@H]5CCCN5C(=O)[C@H](CC(N)=O)NC1=O)NC(=O)[C@@H]1CCCN1C(=O)[C@H](CC(=O)O)NC(=O)[C@H](CSSC[C@H](NC(=O)[C@H](CCCNC(=N)N)NC(=O)[C@H](CCCNC(=N)N)NC(=O)[C@H](CCCCN)NC(=O)[C@@H](N)CCCCN)C(=O)N[C@@H](C(C)C)C(=O)N[C@@H](CCCNC(=N)N)C(=O)N[C@@H](CC(C)C)C(=O)N[C@@H](Cc1c[nH]cn1)C(=O)N[C@@H](CCC(=O)O)C(=O)N[C@@H](CO)C(=O)N4)NC3=O)C(=O)N[C@@H](Cc1ccc(O)cc1)C(=O)N[C@H]1CSSC[C@H](NC(=O)[C@H](Cc3ccccc3)NC(=O)[C@H](C)NC(=O)[C@H](CC(N)=O)NC(=O)[C@H](Cc3ccccc3)NC(=O)[C@H](Cc3ccccc3)NC(=O)[C@H](CCCNC(=N)N)NC1=O)C(=O)N[C@@H](Cc1ccc(O)cc1)C(=O)N2 — body weight change (Long-Evans rat, male; intracerebroventricular, 1.0 nmol, 5 days): 41.1 ± 6.8 g
